Experimental data of several laboratories.
Every numbered part comes from another study and shows a few of its results, in no order.

Block 1 — technique: RNA Bind-n-Seq; molecule type: RNA; sample: in vitro; tested at: 200 nM; setting: whole 134-nt RNA, ends assumed; added: 150 mM KCl; relative to: input library; direction: higher = stronger binding; measurement: log2 enrichment
Target: Fragile X messenger ribonucleoprotein 1, C-terminal low-complexity region (Fmr1, Mus musculus, UniProt P35922)
All sequences stand within: GGGAGUUCUACAGUCCGACGAUC … UGGAAUUCUCGGGUGUCAAGG
Sequence = CCUGUGCUACACAUCGUAUGUACCGAAUCGGGGCCCCCCGGGCCCCCCGGGGCCCCCCGGAAAGUAUUAUGUUACGCCGUUCGGAUCUGC; result = -0.736
Sequence = UGUCAUGGAUUCAAGUUAUUAAAAGCAUAAGUUUGGAAGACAGGCUUGCCGAAAUUGAGGACAUGAUUAAAAUUGCAGUGAAGUUUGAAA; result = -2.28
Sequence = AGUCCUGUGCUACACAUCGUAUGUACCGAAUCGGGGUGGGGUUUUUGGGGAAAGGGGAAAGUAUUAUGUUACGCCGUUCGGAUCUGCACU; result = 0.769
Sequence = ACCAUGCAGGUGGGCAUCUUUAAAAAGUGGGGCAAGGGGGGGAUAGGGAGGGGGGUAACACUUUGGGAACAGGUGGUCCCAGGUCGUUUC; result = 1.41
Sequence = CACAGACAACACGCACCCACACAGACACAGAGGGAAGGGGUUGGGAUGGGGACAGGGUGCACAGCAGGGCGGAAAAGGACCCCAGCCCCU; result = 1.11
Sequence = UCCUGUGCUACACAUCGUAUGUACCGAAUCGGGGUUUUUUUGGGGAAAGGGGAAAGGGGAAAGUAUUAUGUUACGCCGUUCGGAUCUGCA; result = 0.616
Sequence = AGUCCUGUGCUACACAUCGUAUGUACCGAAUCGGUUUUGGGGUUUUGGGUUUUGGGGAAAGUAUUAUGUUACGCCGUUCGGAUCUGCACU; result = 0.104
Sequence = ACCAUGCAGGUGGGCAUCUUUGGGAAGUGAGGCAAGGGGGGGAUAGGGAGGGGGGUAACACUUUGGGAACAGGUGGUCCCAGGUCGUUUC; result = 1.19
Sequence = CAAGUCCUGUGCUACACAUCGUAUGUACCGAAUCGGGGCCCGGGCCCGGCCCGGGGAAAGUAUUAUGUUACGCCGUUCGGAUCUGCACUU; result = -0.721
Sequence = UCAAGUCCUGUGCUACACAUCGUAUGUACCGAAUCGGUUUGGUUUGGUUUGGGGAAAGUAUUAUGUUACGCCGUUCGGAUCUGCACUUCC; result = -0.368

Block 2 — technique: RNA Bind-n-Seq; molecule type: RNA; sample: in vitro; tested at: 20 nM; setting: 6-mer, flanks averaged, single round; added: 150 mM LiCl; relative to: input library; direction: higher = stronger binding; measurement: 6-mer enrichment (R)
Target: TAR DNA-binding protein 43, full length, His tag (TARDBP, Homo sapiens, UniProt Q13148, residues 1-414)
Sequence = GAAGUC; result = 0.864
Sequence = AUCGGC; result = 0.861
Sequence = GUGGGU; result = 1.54
Sequence = CAGUAG; result = 0.909
Sequence = CUGCCA; result = 0.92
Sequence = UAGAUU; result = 0.882
Sequence = ACUAAA; result = 0.839
Sequence = UUAGCC; result = 0.969
Sequence = ACAUUC; result = 0.841
Sequence = GCACAA; result = 0.91
Sequence = AUGGUC; result = 0.916
Sequence = CCUUUC; result = 0.991
Sequence = ACGGAU; result = 0.872
Sequence = ACCCUA; result = 0.933
Sequence = UUACGC; result = 0.898
Sequence = AGUGUC; result = 0.99
Sequence = AUUGGA; result = 0.971
Sequence = AUUUGA; result = 0.978
Sequence = UAUUAC; result = 0.941
Sequence = CCUGCA; result = 0.914
Sequence = UUAAGG; result = 0.955
Sequence = GCCAUG; result = 0.947
Sequence = AAGCCU; result = 0.867
Sequence = ACUAUA; result = 0.91
Sequence = GGCAAC; result = 0.863

Block 3 — technique: RNA Bind-n-Seq; molecule type: RNA; sample: in vitro; tested at: 365 nM; relative to: no-protein control; direction: higher = stronger binding; measurement: RBNS enrichment (R)
Target: RNA binding protein fox-1 homolog 2, RRM domain, GST-SBP tag (RBFOX2, Homo sapiens, UniProt O43251-10, residues 100-194)
Setting: natural RNA segment, single round, ends assumed
All sequences stand within: GGGAGUUCUACAGUCCGACGAUC … UGGAAUUCUCGGGUGCCAA
Residues (chain): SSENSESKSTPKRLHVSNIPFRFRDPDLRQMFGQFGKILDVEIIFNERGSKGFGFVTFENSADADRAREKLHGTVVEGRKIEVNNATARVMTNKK
Sequence = GUGUUUUGUAUAUGAUAUUGCAGUUUUACUAGGCAAAUCUUCAAAAGAUGCACUUUAGGAAACGAAAUAUUUCCUAAAUAACCAGGCUUCCACAUUGUACAGAAUGAGCA; result = 5.13
Sequence = GUAGUCCUAGCUACUCAGGAGGCUGAGGUGGAGGAUCACUUAAGCCUGAGAGGUCAAGGUUGCAAUGAGCCAUAAUCAUACCACUGCACUCCAGCCUGGGCAACAGAGUG; result = 0.247
Sequence = AUAAUGACCUAUUUCUAUAAAAAAAUAAAAUUGUACGGAUUAUGUGUAAAUUAUUUUGUAUCUGAGAUACCAGUUCCAUUCCCACAUAUGAAAGUAUAAAGGUUUCCUUG; result = 0.463
Sequence = CAUUCCUUUAUGGGAGCGUCUGCGCCUGGGCUGAGUGUGGGGGAUACACAGAUGUUCUAUCUAGAACAUUUCCAUUGCAACAGCUAAGUUUGUGUUUCGUGGUUUUUUUA; result = 0.503
Sequence = ACCCCUUACAUGAAUAUAGUCAUGUACACACACGCAUACAAAAAGUAAUACAAACACAAACAUCAUACACACUGACUCUGAACUGGGUGAACUCUGUGAAGGGAGGCCCA; result = 1.47
Sequence = CAUAGCAAAAAGAAAGUGGCUACAGGAUUGUGGCUAACAAGAAUAAAUACAUGGGAAAAGUGCUCCCCCUGGAAGAGUCACUGUCUGAAUGAAGCAAAGUUCCCUCUCAG; result = 0.474
Sequence = AGCAACUUUGCUCUCCCUGCCGUGCCUCGGUGGUGCUCCUGAAUGUGGCUGACCUGGGCUGCUGGUUCCGUUGACUAGGGUCAUCUUGAUCUCUGCAGUUUGCUCCAGCU; result = 0.411
Sequence = AUCCCCUCUGAGUCCUCUGCCCCUUCCAAGGACACUAAUGAGCCUGGGAGGGUGGCAGGGAGGAGGGGACAGCUUCACCCUUGGAAGUCCUGGGGUUUUUCCUCUUCCUU; result = 0.167
Sequence = AGCAGCCAGAGCAGUUAGCCAGUUAGUCCCCAGGCCUGUGGCCACAGGCGUUUCUGACCUGCUGGGCCGAGAAUGGGUAAGUUGUCUGGAGUCAGGUGGGCCCACGUAGG; result = 0.75
Sequence = UGCUGCUCAACUCCACGCUCACUGCCUCUGAGUGGCCCGGCCAGGGGAGGGACAGAUGAUUCUGUGAUGGCAUGGGUAGUGGGUAGUGACAGCCAUGUCUGCGACGAUCA; result = 0.948
Sequence = GCCUAUCAUUUCUUUUACCUUUAACUCAACUCUGAACUGAUUGAAUAAGUGCUAAGCUUAUUCUUUGGGCUUUGGGUGGCAAUUUUCAGUGAGGUAUUAAAUAUAUCUGA; result = 0.366
Sequence = UUUUUAAGAAUUCUGUACUUCCAAUUUAUAAUGAAUACUUUCUUAGAUUUUAGGUAGGAGGGGAGCAGAGGAAUUAUGAACUGGGGUAAACCCAUUUUGAAUAUUAGCAU; result = 0.637

Block 4 — technique: protein binding microarray; molecule type: double-stranded DNA, one strand shown; sample: in vitro; tested at: not given; relative to: not given; direction: higher = stronger binding; measurement: E-score
Target: Histone acetyltransferase KAT6A, winged helix 1, GST fusion (KAT6A, Homo sapiens, UniProt Q92794, residues 1-85)
Setting: 8-mer, flanks averaged, mean of 2 arrays, mostly near background
Construct (chain): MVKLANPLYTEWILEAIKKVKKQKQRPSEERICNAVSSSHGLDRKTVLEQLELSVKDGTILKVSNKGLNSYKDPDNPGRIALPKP
Sequence = AACCAAAG; result = -0.306
Sequence = ACGCCAGC; result = 0.0489
Sequence = CAGGCAAG; result = -0.0943
Sequence = ACACAGTC; result = -0.17
Sequence = CACCTCCG; result = 0.145
Sequence = AGCCTGAA; result = -0.206
Sequence = AAGAAGTA; result = -0.052
Sequence = CACTACTC; result = -0.0681
Sequence = TATAGACA; result = -0.311
Sequence = TAGTCGGA; result = 0.0286
Sequence = ACTCGCCG; result = 0.303
Sequence = TCTTATCA; result = -0.212
Sequence = AAGTAGAT; result = -0.129
Sequence = GGGGACCC; result = 0.0454
Sequence = TGCTCCCA; result = -0.324
Sequence = CATAGCCC; result = -0.168
Sequence = AACCATGA; result = 0.0122
Sequence = AATCTATA; result = -0.0749
Sequence = ACACCAGC; result = -0.0684
Sequence = CTTGATTC; result = -0.08
Sequence = CTGCACTC; result = -0.136
Sequence = GCGGAAAA; result = 0.242
Sequence = AGAACTGA; result = -0.103
Sequence = CTGTCAGC; result = -0.0178
Sequence = CACACTAC; result = -0.0666

Repeated from above (block 3):
Sequence = AGCAACUUUGCUCUCCCUGCCGUGCCUCGGUGGUGCUCCUGAAUGUGGCUGACCUGGGCUGCUGGUUCCGUUGACUAGGGUCAUCUUGAUCUCUGCAGUUUGCUCCAGCU; result = 0.411
Sequence = ACCCCUUACAUGAAUAUAGUCAUGUACACACACGCAUACAAAAAGUAAUACAAACACAAACAUCAUACACACUGACUCUGAACUGGGUGAACUCUGUGAAGGGAGGCCCA; result = 1.47
Sequence = UUUUUAAGAAUUCUGUACUUCCAAUUUAUAAUGAAUACUUUCUUAGAUUUUAGGUAGGAGGGGAGCAGAGGAAUUAUGAACUGGGGUAAACCCAUUUUGAAUAUUAGCAU; result = 0.637
Sequence = GCCUAUCAUUUCUUUUACCUUUAACUCAACUCUGAACUGAUUGAAUAAGUGCUAAGCUUAUUCUUUGGGCUUUGGGUGGCAAUUUUCAGUGAGGUAUUAAAUAUAUCUGA; result = 0.366
Sequence = CAUAGCAAAAAGAAAGUGGCUACAGGAUUGUGGCUAACAAGAAUAAAUACAUGGGAAAAGUGCUCCCCCUGGAAGAGUCACUGUCUGAAUGAAGCAAAGUUCCCUCUCAG; result = 0.474
Sequence = UGCUGCUCAACUCCACGCUCACUGCCUCUGAGUGGCCCGGCCAGGGGAGGGACAGAUGAUUCUGUGAUGGCAUGGGUAGUGGGUAGUGACAGCCAUGUCUGCGACGAUCA; result = 0.948
Sequence = GUGUUUUGUAUAUGAUAUUGCAGUUUUACUAGGCAAAUCUUCAAAAGAUGCACUUUAGGAAACGAAAUAUUUCCUAAAUAACCAGGCUUCCACAUUGUACAGAAUGAGCA; result = 5.13
Sequence = AUAAUGACCUAUUUCUAUAAAAAAAUAAAAUUGUACGGAUUAUGUGUAAAUUAUUUUGUAUCUGAGAUACCAGUUCCAUUCCCACAUAUGAAAGUAUAAAGGUUUCCUUG; result = 0.463
Sequence = GUAGUCCUAGCUACUCAGGAGGCUGAGGUGGAGGAUCACUUAAGCCUGAGAGGUCAAGGUUGCAAUGAGCCAUAAUCAUACCACUGCACUCCAGCCUGGGCAACAGAGUG; result = 0.247
Sequence = AUCCCCUCUGAGUCCUCUGCCCCUUCCAAGGACACUAAUGAGCCUGGGAGGGUGGCAGGGAGGAGGGGACAGCUUCACCCUUGGAAGUCCUGGGGUUUUUCCUCUUCCUU; result = 0.167
